Measurements from different studies.
A part holds a random share of what one study measured.

Sample 1
Target: RING finger protein unkempt homolog, zinc fingers 1-6, GST-SBP tag (UNK, Homo sapiens, UniProt Q9C0B0, residues 30-357)
Sequence of UniProt Q9C0B0 (30-357, looked up): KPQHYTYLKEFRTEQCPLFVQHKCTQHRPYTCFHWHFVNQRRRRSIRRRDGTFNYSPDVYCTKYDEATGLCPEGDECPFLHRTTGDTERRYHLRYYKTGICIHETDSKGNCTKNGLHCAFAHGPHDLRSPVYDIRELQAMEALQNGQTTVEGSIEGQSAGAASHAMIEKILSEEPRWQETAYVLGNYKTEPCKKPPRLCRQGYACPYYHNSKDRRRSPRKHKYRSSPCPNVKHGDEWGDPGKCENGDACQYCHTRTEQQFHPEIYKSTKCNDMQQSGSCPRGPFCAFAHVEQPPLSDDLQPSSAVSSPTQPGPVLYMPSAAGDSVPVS
Technique: RNA Bind-n-Seq
Form: RNA
Matrix: in vitro
Concentration: not given
Setting: RNA with constant flanks, human-mouse chimeric sites, ends assumed
Baseline: input RNA pool
Direction: higher = stronger binding
Measurement: bound/input enrichment
All sequences stand within: GGGAGUUCUACAGUCCGACGAUC … CAACAGAGGAUUGAGCAUCA
GAUAAGAAAAGCUUGUUGGAGACCCGCUUGCAUGUCACUGGCAGAGAACUGAGGUCCCAAAUAGCUGAAACUUUCGGAUUUCAAGAAAAUUACAUCAAGAUCGUAAUAAAUAAGAAACAG: 0.275 ratio
GUACUGCAACAGCAGGGAAAACUGCAGGAAGCUCUGAUGCACUAUAAGGAGGCUAUUCGAAUCAGUCCUACCUUUGCUGAUGCCUACUCUAAUAUGGGAAACACUCUAAAGGAGAUGCAG: 0.154 ratio
CUGGCACUCUAUCAGAUAUAUUAAUUUUUUAAUGUAGAUAAAAUUUCAAAAAUGAAUGGCUACUUUACACGUUUAACUAGGGUUUUACUAUAUAUGUGUACAUAUGUAUAUAUAUAUAUA: 11.7 ratio
GGCCUGGACCUUCCUGGGGCUAGUACAAAUAGCGGCAGUGGAGGCUCGAGAGGAAAGUUUGUUAGUGGAGGCAGUGGUAGAGGCCGUCAUGUACGGUCCUUUACUCGUAAAAAUCCUUCU: 0.203 ratio
AGAUUCCCCCUCCUGAGACCUCCUCCGAAGUUGGAGUCUCUUACAGAUGCCUCAUCCCCUGUUAGUAUUUUAGUUUGGACCACCCAGCCUUGGACAAUUCCCGCCAAUGAAGCUGUUUGC: 4.11 ratio
GGGACUGAUUCAUCCCAAGGACAGGCCACCCCAUUUGAUGCCUGGACUGAUGACAGUAUGUUAGGGCCUAGUCAAAAUGUUGAAGCUGAGUCAAUUCAGGAUGCCAUGCAUAUGGCAGAG: 0.419 ratio
CAGCCUCAGAGCCCAGACUUCCUGGACAUUACCAACCCUAAAGCGGUAUUAGAAAAUGCAUUGAGAAACUUCGCCUGUCUGACGACUGGAGAUGUGAUUGCCAUCAACUACAAUGAGAAG: 0.407 ratio
GUUCGGCUCUGGGAUCAUGCUACUAUGACAGAAGUGAAAUCUCUGAAUUUUAAUAUGUCUGUUAGCAGUAUGGAAUAUAUUCCUGAAGGAGAGAUUUUGGUUAUUACUUAUGGACGAUCU: 0.353 ratio
UAACCACAUCAAGAUGGUUGGAAAGCUGAAGCAGAACUUACUCUUGGCGUGUCUGGUGAUUAGUUCUGUGACCGUGUUUUACCUGGGCCAGCAUGCCAUGGAGUGCCAUCACCGGAUAGA: 0.174 ratio
AAAGAGAAACUAAAGCAAACUGAUUGAAAGAGGAUUGGCAAAGAGAAUUUCAUAGAGAAACUAGGAUUUUAUUAGCAACAUGAGUUAUAUUCCAGAGCGUCUCAGAAACCCCAGCCAAAC: 6.67 ratio
GGACAUCUGUCAAAUUGUAUUUCCCGUAAAAACGUAGUGAACACUCUGAUACACUUCAUCUGCUUGUACAUCUGUAUGAUAGAGAAAUGUAAAUAUGUUAAUCCAAGCAAUGUGUCACUU: 0.459 ratio

Sample 2
Target: RNA binding protein fox-1 homolog 2, RRM domain, GST-SBP tag (RBFOX2, Homo sapiens, UniProt O43251-10, residues 100-194)
Technique: RNA Bind-n-Seq
Form: RNA
Matrix: in vitro
Concentration: 365 nM
Setting: natural RNA segment, single round, ends assumed
Baseline: no-protein control
Direction: higher = stronger binding
Measurement: RBNS enrichment (R)
All sequences stand within: GGGAGUUCUACAGUCCGACGAUC … UGGAAUUCUCGGGUGCCAA
Construct (chain): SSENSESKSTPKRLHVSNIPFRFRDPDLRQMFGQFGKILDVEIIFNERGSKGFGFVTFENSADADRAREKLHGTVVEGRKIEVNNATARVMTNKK
AUAGUUAAUAUUAGAAACUCUUUAAUAGUUUUCCUUUCAGUUUGUGAGCUCUUCUCUGUCGCCCUGAAGGGUCACUGUAUUCUGUAUGAAUGCAUGGCAUGAUACAACUA: 3.3
CUCAUCUCCAGCACAGCACAGGCGUGUGCACACAGAGGUGUUCCUUGCAGCCCCCUCCCUCUCAGGUGUCCUGAGAUGCUGUUCCUGGGAGCCCCCUCAGAAAACUGCCU: 0.405
GCCAGCUGCACCCCGCCUGGCUCGCACAGGCUAAGACCACAGACAGAGCAGGGCUUCCCGGAGCCACACAGGCCACGCACCCCAGGAACCCUUGCUGCCGCGGGCCAGGA: 0.456
UAUACAUAUGUAUAUAUAUUUAAAUACACAUAUAUAUUGUACAGAAUAAAAAUGUUUUAUUGAAUACCUGUGCUUAUGCGUUAGCUACAGGCUCAGCUUCCUUCCAGGGC: 0.438
CAUGUCUCCAUAAGACAGGCCCACUAGAAACACCGUUCAGAACCAUAGAGAAGCCAUGGUUUCUGCUUCUCUCCAGGAGUCAGGCUUGCCACUCCAGCUGGGCCGGUGUG: 0.306
AGGUUAAAGACAGUCAUAUAAACGUCCUGUUUCUGUUUUAAUGUUAUCAUAGAAUUUUUUAAUGAAACUAAAUUCAAUUGAAAUAAAUGAUAGUUUUCAUCUCCAUUCAG: 0.519
GGAAAUCUUUAUAUUCUGUAUAAAAACAAAAGCAAAUUUAUAUACUAAAAUCAUUUGUCUAAAAAUUUAAGUUGUUUUCAAAUAAAAAUUAAAAUGCAUUUCUGAUAUGC: 0.835
UAUCCUGUAGCCAUUUUAUUUUUUAAAAGAUUCCUAACACUUUCUCCCUAACGGAAGCCCUAAAUCCCAGAGAGCUACAGGUCUGCUCCCCAUGGGCCCUCGGGCCUGAC: 0.912
UUUUUUUCCCCUCGAGAUGGAGUCUUGCUCUGUUGCCCAGGCUGGAGUGCAGUGGCAUGAUCUCAGCCACUGCAACCUCUGCCUCCCGGGUUCAAGCGAUUCUUCUGCCU: 0.744
GAGGAGACCCUGUGUUUUCAGUGGAAUCAGAUCUUCCUCAGUUGGGGCCUUCCUUGUCCCCCCGUGGACUCUCCAAUGUGGGACCUCGGUCCUGGGCUCUCACCGGGGUC: 0.282
CUUCACCCUCUGUGUCCAGAGGCCCAGCAUCUGUCACACAUCAAGGGGGCGUUUAUUCAGUCUUAGAGCCACUCGGAAUGGCUGGCCACAGUCUGAGCUGACUCCCUUCA: 0.313
UGGUUUCCAUGUGGCAAGAUCCCCGAGAAAACACAGCUAGGUGACUUUCUGACAAGCUGAAGCUAAUUGGUUCUUGAAUCUGAGUUGUUUCAAUUUAGGCCAAGUACUAG: 0.284

Sample 3
Target: Interferon regulatory factor 7, full length, phosphomimetic (IRF7, Homo sapiens, UniProt Q92985, residues 1-503, S471D/S472D/S475D/S476D/S477D/S483D/S484D/S487D)
Technique: protein-binding microarray
Form: double-stranded DNA, one strand shown
Matrix: in vitro
Concentration: 2200 nM top
Setting: 60-bp whole probe
Together with: salmon DNA 0.4 mg/ml
Baseline: random background probes
Direction: higher = stronger binding
Measurement: fitted relative affinity
All sequences stand within: GCCTAGCAC … GTCTTGATTCGCTTGACGCTGCTG
Target sequence (chain): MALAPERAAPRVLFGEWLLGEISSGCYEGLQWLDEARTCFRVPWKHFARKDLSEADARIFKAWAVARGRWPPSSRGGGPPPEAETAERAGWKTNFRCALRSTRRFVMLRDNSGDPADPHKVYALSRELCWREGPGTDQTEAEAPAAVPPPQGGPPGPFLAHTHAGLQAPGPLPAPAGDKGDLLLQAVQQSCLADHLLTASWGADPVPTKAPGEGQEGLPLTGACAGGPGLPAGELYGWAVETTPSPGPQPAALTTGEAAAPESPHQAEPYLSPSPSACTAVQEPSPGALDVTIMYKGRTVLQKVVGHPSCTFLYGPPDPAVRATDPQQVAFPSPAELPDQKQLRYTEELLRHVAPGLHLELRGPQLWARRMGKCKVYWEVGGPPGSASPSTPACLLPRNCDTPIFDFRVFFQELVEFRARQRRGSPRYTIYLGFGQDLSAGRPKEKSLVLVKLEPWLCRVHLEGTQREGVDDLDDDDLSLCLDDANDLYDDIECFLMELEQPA
TCATTTTTTGTAATCGAACTGTGCTAG: 1.26 z-score
GACGGAGTGGGTCTCGGGACGTGCTAG: -0.764 z-score
GACGAGTTCAGTTCCGAGACGTGCTAG: 0.753 z-score
GACGATCCCAGTTTCGAGACGTGCTAG: 4.04 z-score
TCATCTCTGCTCCTTCTGACTGTGCTA: 1.87 z-score
GGGAAAATGGCTTTGCAGATGTGCTAG: -0.594 z-score
GACGAATTACCTCTGGAGCAGTGCTAG: -0.369 z-score
TGAGGTCTCGGTCTCGGTTAGTGCTAG: 0.29 z-score
GACGGTCTCGTTATCCTGACGTGCTAG: 1.1 z-score
TCAGATATCGGGACTGGATTAGTGCTA: -0.102 z-score
ATCACTTTCCACTTGTCTTTGTGCTAG: 8.29 z-score
TTAGGTTTCGGGTTGCGGTTAGTGCTA: 11.6 z-score
TCAACACTCGGTTTCCAACTGTGCTAG: 4.26 z-score
TTAGGTTTCGGTTTTGGTTAGTGCTAG: 12.2 z-score
TTAGGTATAGGGACTGGGTTAGTGCTA: -0.602 z-score
TTAGGTATCCGACTGGGTTAGTGCTAG: -0.188 z-score
GACGATTTCAGTTTCGAGCCGTGCTAG: 4.55 z-score
GACGATATCGGGAATCGAGACGTGCTA: -0.104 z-score
CTGCCTAACATGCTTCGAGATGTGCTA: 0.502 z-score
TTAGAACCGGGGTATCGATTAGTGCTA: -0.152 z-score
GACGGTCTCCTTCTCATGACGTGCTAG: 0.908 z-score
TCGTTTCCCAAGTTTATACCTGTGCTA: 4.42 z-score
GACGGACTGGACTACCGGGACGTGCTA: -0.987 z-score
TCACATATCGGGGTGCGCACTGTGCTA: 0.585 z-score
TTTCTTTTCCATTTTGTGTTGTGCTAG: 7.41 z-score

Sample 4
Target: Fragile X messenger ribonucleoprotein 1, C-terminal low-complexity region (Fmr1, Mus musculus, UniProt P35922)
Technique: RNA Bind-n-Seq
Form: RNA
Matrix: in vitro
Concentration: 200 nM
Setting: whole 134-nt RNA, ends assumed
Together with: 150 mM KCl
Baseline: input library
Direction: higher = stronger binding
Measurement: log2 enrichment
All sequences stand within: GGGAGUUCUACAGUCCGACGAUC … UGGAAUUCUCGGGUGUCAAGG
GCAGGAAGUAAAAACAAAUGGAAAUGCUUCGGAUAGUGGCAGAAAUGGGGGUUGCUAAGGAAAGGGUGGGAUGGGAGUGGGUAAAGAGUU: 0.44
CUCAAGUCCUGUGCUACACAUCGUAUGUACCGAAUCGGCCGGCCGGGCCGGGGAAAGUAUUAUGUUACGCCGUUCGGAUCUGCACUUCCA: -0.346
CUGUGCUACACAUCGUAUGUACCGAAUCGGGGAAAAAAAGGGGUUUUUUUGGGGUUUGGGGAAAGUAUUAUGUUACGCCGUUCGGAUCUG: -0.259
UAACUUUAGAGGAGGAUCCGAUGGAUAUGGCAGUGGACGUGGAUUUGGGGAUGGCUAUAAUGGGUAUGGAGGAGGACCUGGAGGUGGCAA: 0.347
AAGUCCUGUGCUACACAUCGUAUGUACCGAAUCGGCCCCGGGCCCCGGCCCCGGGGAAAGUAUUAUGUUACGCCGUUCGGAUCUGCACUU: -0.713
GUCCUGUGCUACACAUCGUAUGUACCGAAUCGGGGUUUUGGGGUUUUGGGGUUUUGGGAAAGUAUUAUGUUACGCCGUUCGGAUCUGCAC: 0.331
UAACUUUAGAGGAGGAUCUGAUGGAUAUGGCAGUGGAGGUGGAUUUGGGGAUGGCUAUAAUGGGUAUGGAGGAGGACCUGGAGGUGGCAA: 0.339
UGGGAGGUGGAUUUUGUUUAUUUUUUUAGCUCAUUUCCAGGGGUGGGAAUUUUUUUUUAAUAUGUGUCAUGAAUAGAGUUGUUUUUGAAA: 0.269
UGGCCCUGGUGGCAUGCGGGGAGGAAGAGGUGGCCUCAUGGAUCGUGGUGGUCCCGGUGGAAUGUUCAGAGCUGGCCGUGGUGGAGACAG: 0.00731
AGUCCUGUGCUACACAUCGUAUGUACCGAAUCGGGGAAAGGGGUUUGGGGAAAGGGGAAAGUAUUAUGUUACGCCGUUCGGAUCUGCACU: 0.58

Excerpt of the above (sample 4):
UGGGAGGUGGAUUUUGUUUAUUUUUUUAGCUCAUUUCCAGGGGUGGGAAUUUUUUUUUAAUAUGUGUCAUGAAUAGAGUUGUUUUUGAAA: 0.269
UAACUUUAGAGGAGGAUCUGAUGGAUAUGGCAGUGGAGGUGGAUUUGGGGAUGGCUAUAAUGGGUAUGGAGGAGGACCUGGAGGUGGCAA: 0.339
UGGCCCUGGUGGCAUGCGGGGAGGAAGAGGUGGCCUCAUGGAUCGUGGUGGUCCCGGUGGAAUGUUCAGAGCUGGCCGUGGUGGAGACAG: 0.00731
GUCCUGUGCUACACAUCGUAUGUACCGAAUCGGGGUUUUGGGGUUUUGGGGUUUUGGGAAAGUAUUAUGUUACGCCGUUCGGAUCUGCAC: 0.331
UAACUUUAGAGGAGGAUCCGAUGGAUAUGGCAGUGGACGUGGAUUUGGGGAUGGCUAUAAUGGGUAUGGAGGAGGACCUGGAGGUGGCAA: 0.347
AGUCCUGUGCUACACAUCGUAUGUACCGAAUCGGGGAAAGGGGUUUGGGGAAAGGGGAAAGUAUUAUGUUACGCCGUUCGGAUCUGCACU: 0.58
